Measurements collected from several papers.
Numbered parts are unrelated; each lists some results of a single study.
UniProt Q92918, sequence (whole entry, looked up): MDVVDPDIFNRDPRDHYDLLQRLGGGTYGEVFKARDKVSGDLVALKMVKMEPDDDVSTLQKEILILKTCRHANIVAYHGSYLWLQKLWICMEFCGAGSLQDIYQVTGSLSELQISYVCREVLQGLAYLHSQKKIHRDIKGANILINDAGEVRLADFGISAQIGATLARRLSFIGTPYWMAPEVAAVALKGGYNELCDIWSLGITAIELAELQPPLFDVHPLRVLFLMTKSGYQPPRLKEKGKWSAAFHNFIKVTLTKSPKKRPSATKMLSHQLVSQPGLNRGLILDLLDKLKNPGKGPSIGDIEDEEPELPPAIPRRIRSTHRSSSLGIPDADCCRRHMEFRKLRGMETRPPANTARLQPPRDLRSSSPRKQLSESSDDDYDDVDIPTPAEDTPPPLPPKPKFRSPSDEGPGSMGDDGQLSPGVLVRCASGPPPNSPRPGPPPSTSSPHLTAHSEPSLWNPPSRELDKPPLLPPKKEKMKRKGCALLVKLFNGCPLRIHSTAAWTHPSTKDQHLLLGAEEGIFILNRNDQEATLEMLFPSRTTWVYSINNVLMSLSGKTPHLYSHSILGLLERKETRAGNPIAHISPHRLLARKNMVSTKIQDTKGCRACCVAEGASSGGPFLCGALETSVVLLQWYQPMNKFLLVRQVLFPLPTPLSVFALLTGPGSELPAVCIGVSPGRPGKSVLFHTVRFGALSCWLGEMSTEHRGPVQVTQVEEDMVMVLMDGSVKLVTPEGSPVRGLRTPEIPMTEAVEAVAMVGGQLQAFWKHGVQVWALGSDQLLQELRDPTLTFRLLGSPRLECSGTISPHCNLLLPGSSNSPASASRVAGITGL
UniProt Q9UK32, sequence (whole entry, looked up): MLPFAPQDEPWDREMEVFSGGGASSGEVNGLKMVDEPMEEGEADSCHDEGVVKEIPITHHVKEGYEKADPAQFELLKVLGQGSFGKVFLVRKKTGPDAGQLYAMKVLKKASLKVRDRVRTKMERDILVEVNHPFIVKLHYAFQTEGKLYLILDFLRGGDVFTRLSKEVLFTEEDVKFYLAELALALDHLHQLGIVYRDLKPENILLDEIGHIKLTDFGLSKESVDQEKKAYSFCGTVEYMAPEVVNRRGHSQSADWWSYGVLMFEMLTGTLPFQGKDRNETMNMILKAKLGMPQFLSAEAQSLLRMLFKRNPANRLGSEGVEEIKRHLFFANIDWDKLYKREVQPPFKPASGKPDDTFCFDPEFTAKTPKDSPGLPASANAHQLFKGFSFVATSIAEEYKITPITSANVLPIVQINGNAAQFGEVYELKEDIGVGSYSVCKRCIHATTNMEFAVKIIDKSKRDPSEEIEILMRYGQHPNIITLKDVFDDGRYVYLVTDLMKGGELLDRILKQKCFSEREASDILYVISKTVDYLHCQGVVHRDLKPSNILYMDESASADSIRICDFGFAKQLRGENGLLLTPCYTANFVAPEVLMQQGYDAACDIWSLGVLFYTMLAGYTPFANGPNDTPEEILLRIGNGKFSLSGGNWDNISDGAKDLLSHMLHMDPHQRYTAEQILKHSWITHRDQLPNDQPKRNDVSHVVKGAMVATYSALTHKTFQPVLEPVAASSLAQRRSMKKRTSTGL
UniProt P42681, sequence (whole entry, looked up): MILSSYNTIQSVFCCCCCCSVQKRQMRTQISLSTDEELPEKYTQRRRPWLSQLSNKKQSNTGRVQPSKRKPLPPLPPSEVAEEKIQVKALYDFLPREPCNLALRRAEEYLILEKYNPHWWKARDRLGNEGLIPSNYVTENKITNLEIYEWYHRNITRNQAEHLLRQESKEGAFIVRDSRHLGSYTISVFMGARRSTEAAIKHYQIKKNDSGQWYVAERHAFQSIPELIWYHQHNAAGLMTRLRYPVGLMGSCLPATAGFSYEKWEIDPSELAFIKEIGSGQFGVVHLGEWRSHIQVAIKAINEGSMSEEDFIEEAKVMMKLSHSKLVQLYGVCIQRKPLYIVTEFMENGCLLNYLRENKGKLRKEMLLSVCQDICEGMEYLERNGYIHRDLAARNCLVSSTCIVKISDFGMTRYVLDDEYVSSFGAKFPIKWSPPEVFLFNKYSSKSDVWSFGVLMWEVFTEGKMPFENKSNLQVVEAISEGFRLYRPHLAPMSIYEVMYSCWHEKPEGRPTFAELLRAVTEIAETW
UniProt Q9H0K1, sequence (whole entry, looked up): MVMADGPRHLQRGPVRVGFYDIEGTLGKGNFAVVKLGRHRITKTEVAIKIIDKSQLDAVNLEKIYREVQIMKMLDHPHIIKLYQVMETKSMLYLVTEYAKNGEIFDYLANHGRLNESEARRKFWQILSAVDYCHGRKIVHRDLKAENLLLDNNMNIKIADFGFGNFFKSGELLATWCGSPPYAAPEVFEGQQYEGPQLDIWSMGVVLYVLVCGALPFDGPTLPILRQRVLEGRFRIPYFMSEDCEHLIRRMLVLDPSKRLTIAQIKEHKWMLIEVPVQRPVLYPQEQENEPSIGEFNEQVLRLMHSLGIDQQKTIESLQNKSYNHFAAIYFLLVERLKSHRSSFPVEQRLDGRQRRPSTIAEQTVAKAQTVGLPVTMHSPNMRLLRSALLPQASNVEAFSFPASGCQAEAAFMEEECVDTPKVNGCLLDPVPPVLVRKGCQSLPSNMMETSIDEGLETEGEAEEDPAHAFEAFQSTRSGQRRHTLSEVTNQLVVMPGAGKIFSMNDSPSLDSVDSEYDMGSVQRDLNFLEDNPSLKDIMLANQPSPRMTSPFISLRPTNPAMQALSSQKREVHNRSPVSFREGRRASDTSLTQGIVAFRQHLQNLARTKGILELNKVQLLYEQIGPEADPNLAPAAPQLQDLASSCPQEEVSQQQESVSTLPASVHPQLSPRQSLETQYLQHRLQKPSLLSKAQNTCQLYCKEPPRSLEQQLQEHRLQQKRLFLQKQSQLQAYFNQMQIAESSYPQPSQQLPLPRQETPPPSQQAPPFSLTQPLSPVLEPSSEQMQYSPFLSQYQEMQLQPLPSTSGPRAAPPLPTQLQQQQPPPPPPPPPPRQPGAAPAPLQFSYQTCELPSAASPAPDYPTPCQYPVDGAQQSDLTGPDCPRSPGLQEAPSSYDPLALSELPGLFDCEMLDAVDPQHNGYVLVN
UniProt Q9BWU1, sequence (whole entry, looked up): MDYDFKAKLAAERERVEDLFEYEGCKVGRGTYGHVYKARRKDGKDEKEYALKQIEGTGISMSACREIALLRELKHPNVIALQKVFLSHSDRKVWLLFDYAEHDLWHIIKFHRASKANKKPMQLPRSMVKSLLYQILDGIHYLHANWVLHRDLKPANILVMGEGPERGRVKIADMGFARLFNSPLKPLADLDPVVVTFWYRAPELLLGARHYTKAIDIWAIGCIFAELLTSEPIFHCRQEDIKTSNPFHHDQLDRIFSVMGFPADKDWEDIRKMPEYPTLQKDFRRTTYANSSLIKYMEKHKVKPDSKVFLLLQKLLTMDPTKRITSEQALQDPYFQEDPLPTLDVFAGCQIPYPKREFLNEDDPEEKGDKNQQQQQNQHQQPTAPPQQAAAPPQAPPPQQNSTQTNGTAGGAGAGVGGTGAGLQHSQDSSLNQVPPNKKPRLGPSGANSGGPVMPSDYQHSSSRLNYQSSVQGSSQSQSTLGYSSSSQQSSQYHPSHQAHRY
UniProt Q15349, sequence (whole entry, looked up): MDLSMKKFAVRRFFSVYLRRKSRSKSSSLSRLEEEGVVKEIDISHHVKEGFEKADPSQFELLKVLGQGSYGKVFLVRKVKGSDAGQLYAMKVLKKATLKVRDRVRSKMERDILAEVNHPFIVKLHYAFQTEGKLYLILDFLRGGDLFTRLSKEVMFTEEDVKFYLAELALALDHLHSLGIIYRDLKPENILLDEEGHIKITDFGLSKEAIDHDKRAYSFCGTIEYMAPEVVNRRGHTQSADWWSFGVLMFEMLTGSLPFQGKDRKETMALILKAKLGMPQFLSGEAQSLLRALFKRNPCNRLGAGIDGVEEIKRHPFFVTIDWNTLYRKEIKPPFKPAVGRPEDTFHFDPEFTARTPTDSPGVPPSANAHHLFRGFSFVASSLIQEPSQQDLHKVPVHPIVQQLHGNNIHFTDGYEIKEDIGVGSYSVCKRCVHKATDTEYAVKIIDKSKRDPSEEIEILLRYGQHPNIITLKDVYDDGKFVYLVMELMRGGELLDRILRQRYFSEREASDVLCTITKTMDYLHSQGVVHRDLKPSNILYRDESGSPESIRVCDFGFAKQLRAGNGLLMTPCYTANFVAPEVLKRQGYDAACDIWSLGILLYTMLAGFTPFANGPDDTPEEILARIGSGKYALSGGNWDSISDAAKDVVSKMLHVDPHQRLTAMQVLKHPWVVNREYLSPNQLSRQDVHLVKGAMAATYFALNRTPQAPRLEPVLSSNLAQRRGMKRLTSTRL
UniProt Q9UQB9, sequence (whole entry, looked up): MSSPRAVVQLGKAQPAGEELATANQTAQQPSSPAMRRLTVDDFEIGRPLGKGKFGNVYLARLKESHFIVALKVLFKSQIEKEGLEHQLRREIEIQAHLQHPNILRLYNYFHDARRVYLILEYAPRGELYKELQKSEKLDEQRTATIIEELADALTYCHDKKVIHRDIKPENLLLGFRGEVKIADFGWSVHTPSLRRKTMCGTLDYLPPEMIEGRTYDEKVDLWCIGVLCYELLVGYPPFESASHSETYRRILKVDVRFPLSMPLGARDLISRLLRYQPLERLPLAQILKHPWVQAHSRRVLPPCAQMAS

Block 1 — SMILES: CC(C)(O)c1cncc(-c2nc3ccc(F)cc3n2C2CC2)c1; concentration: 1 µM; measurement: remaining binding
AKT2 (Homo sapiens, UniProt P31751); cell-free assay, competition with immobilised ligand: 84%
Ribosomal protein S6 kinase alpha-6, C-terminal kinase domain (RPS6KA6, Homo sapiens, UniProt Q9UK32); cell-free assay, competition with immobilised ligand: 100%
DMPK (Homo sapiens, UniProt Q09013); cell-free assay, competition with immobilised ligand: 71%
HCK (Homo sapiens, UniProt P08631); cell-free assay, competition with immobilised ligand: 100%
SBK1 (Homo sapiens, UniProt Q52WX2); cell-free assay, competition with immobilised ligand: 100%
FLT3 (Homo sapiens, UniProt P36888, D835V/ITD); cell-free assay, competition with immobilised ligand: 83%
TAOK3 (Homo sapiens, UniProt Q9H2K8); cell-free assay, competition with immobilised ligand: 100%
MARK4 (Homo sapiens, UniProt Q96L34); cell-free assay, competition with immobilised ligand: 100%
PIK3CA (Homo sapiens, UniProt P42336, Q546K); cell-free assay, competition with immobilised ligand: 78%
CDK19 (Homo sapiens, UniProt Q9BWU1); competition binding: 94%
SIK2 (Homo sapiens, UniProt Q9H0K1); cell-free assay, competition with immobilised ligand: 100%
BMPR1B (Homo sapiens, UniProt O00238); cell-free assay, competition with immobilised ligand: 96%
HASPIN (Homo sapiens, UniProt Q8TF76); cell-free assay, competition with immobilised ligand: 83%
ACVR1B (Homo sapiens, UniProt P36896); cell-free assay, competition with immobilised ligand: 99%
STK10 (Homo sapiens, UniProt O94804); cell-free assay, competition with immobilised ligand: 100%
TXK (Homo sapiens, UniProt P42681); binding, competition with immobilised ligand: 92%
Ribosomal protein S6 kinase alpha-2, N-terminal kinase domain (RPS6KA2, Homo sapiens, UniProt Q15349); cell-free assay, competition with immobilised ligand: 100%
FLT3 (Homo sapiens, UniProt P36888, D835H); cell-free assay, competition with immobilised ligand: 89%
WEE1 (Homo sapiens, UniProt P30291); cell-free assay, competition with immobilised ligand: 72%
CDK17 (Homo sapiens, UniProt Q00537); cell-free assay, competition with immobilised ligand: 100%
STK36 (Homo sapiens, UniProt Q9NRP7); cell-free assay, competition with immobilised ligand: 93%
MET (Homo sapiens, UniProt P08581, M1250T); cell-free assay, competition with immobilised ligand: 100%
CDK13 (Homo sapiens, UniProt Q14004); cell-free assay, competition with immobilised ligand: 96%
NEK3 (Homo sapiens, UniProt P51956); cell-free assay, competition with immobilised ligand: 100%
Aurora kinase C (AURKC, Homo sapiens, UniProt Q9UQB9); cell-free assay, competition with immobilised ligand: 100%

Block 2 — observed: kinase activity; mode: inhibitor; concentration: 1 µM; measurement: remaining activity
SMILES: CC(C)S(=O)(=O)c1ccc2nccc(Nc3ccc4sc(C5CCCC5)nc4c3)c2c1
GRK4 (Homo sapiens, UniProt P32298): 110%
DYRK1A (Homo sapiens, UniProt Q13627): 99.5%
MAP4K1 (Homo sapiens, UniProt Q92918): 100%

Block 3 — host: human; medium: microsomes or S9; concentration: 2 µM; time: 0.5 h; measurement: remaining compound
O=c1c(O)c(-c2ccccc2)oc2cc(O)ccc12: 2.34%
O=C(NC1CCN(Cc2ccc(OC3CCNCC3)c(Br)c2)CC1)c1cc2cc(F)ccc2n1S(=O)(=O)c1ccccc1: 59.2%
Cc1ccc2nc3c(cc(C(=O)NCCCn4ccnc4)n3C)c(=O)n2c1: 74.9%
CCOC(=O)C(C)n1nc(-n2cccn2)ccc1=O (stereo not drawn): 0%
CN(Cc1ccccc1)C(=O)COc1ccc2c3ccccc3n(C(=O)c3ccc(C(C)(C)C)cc3)c2c1: 7.15%
c1ccc(-c2nc3c(-c4ccccc4)ccc(-c4ccccc4)n3n2)cc1: 78.2%
Cn1c(=O)c2[nH]c(N3CCN(c4cccc(O)c4)CC3)nc2n(C)c1=O: 65.2%
O=S(=O)(/N=C(\NC1CCCCC1)c1ccccc1)c1ccccc1: > 99%
CCOc1ccc(S(=O)(=O)N2CCN(C)CC2)cc1-c1nc(O)c2c(n1)c(C(C)(C)C)nn2C: 1.02%
CN(C)S(=O)(=O)c1ccc(C(=O)Nc2ccncc2)o1: 80.1%
COc1ccc(Cl)cc1-c1ccc2c(c1)c(C#N)cn2-c1ccc(F)cc1: 70.5%
Cc1nnc(SCC(=O)Nc2nc[nH]n2)s1: 94%
COc1cccc(CNC(=O)N2Cc3c(sc4c3CCCC4)-n3cccc3C2C)c1 (stereo not drawn): 1.78%

Block 4 — observed: enzyme activity; mode: inhibitor; concentration: 0.5 µM; baseline: control; measurement: remaining activity
Target: Casein kinase I isoform gamma-1 (CSNK1G1, Homo sapiens, UniProt Q9HCP0)
UniProt Q9HCP0, sequence (whole entry, looked up): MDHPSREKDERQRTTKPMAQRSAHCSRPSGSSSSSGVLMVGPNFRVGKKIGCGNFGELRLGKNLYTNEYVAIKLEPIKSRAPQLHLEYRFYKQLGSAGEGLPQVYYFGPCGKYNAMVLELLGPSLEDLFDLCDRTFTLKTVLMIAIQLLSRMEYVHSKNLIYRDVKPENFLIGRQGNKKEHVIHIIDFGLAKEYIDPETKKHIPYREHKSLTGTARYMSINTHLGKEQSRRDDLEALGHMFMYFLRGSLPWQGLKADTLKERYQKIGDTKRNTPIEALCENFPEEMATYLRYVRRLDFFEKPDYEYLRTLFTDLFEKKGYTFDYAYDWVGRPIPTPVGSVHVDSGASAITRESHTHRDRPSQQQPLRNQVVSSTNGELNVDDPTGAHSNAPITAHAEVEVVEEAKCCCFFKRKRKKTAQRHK
O=S(=O)(c1cccc2cnccc12)N1CCCNCC1: 89.6%
Cc1cccc(-c2[nH]c(C(C)(C)C)nc2-c2ccc3c(c2)OCO3)n1: 79.4%
CCOC(=O)c1c(C)[nH]c(/C=C2\C(=O)Nc3ccccc32)c1C: 103%
COc1ccc(OC)c2c(=S)c3ccccc3[nH]c12: 120%
OCC(O)CCON=C1C(c2c(O)[nH]c3ccccc23)=Nc2ccccc21 (stereo not drawn): 89.2%
Cn1sc(=O)n(Cc2ccccc2)c1=O: 95.2%
CNC(=O)c1cc(Oc2ccc(NC(=O)Nc3ccc(Cl)c(C(F)(F)F)c3)cc2)ccn1: 102%
NCCNc1ncc(C(N)=O)c(Nc2cccc(C(F)(F)F)c2)n1: 90.6%
O=C1NC(=O)C(c2cn(CCCn3ccnc3)c3ccccc23)=C1Nc1ccccc1: 95%
Nc1ncnc2n[nH]c(Nc3ccc(F)cc3)c12: 83.3%
C#Cc1cccc(Nc2ncnc3cc(OCCOC)c(OCCOC)cc23)c1: 104%
Nc1[nH]nc2nc3ccccc3nc12: 99%
Oc1ccc(-c2nc(-c3ccncc3)c(-c3ccc(F)cc3)[nH]2)cc1: 97.3%
O=C1NC(=O)C(c2cn(CCCO)c3ncccc23)=C1c1cnccn1: 101%
CO[C@H]1C[C@@H]2CC[C@@H](C)[C@@](O)(O2)C(=O)C(=O)N2CCCC[C@H]2C(=O)O[C@H]([C@H](C)C[C@@H]2CC[C@@H](O)[C@H](OC)C2)CC(=O)[C@H](C)/C=C(\C)[C@@H](O)[C@@H](OC)C(=O)[C@H](C)C[C@H](C)/C=C/C=C/C=C/1C: 96%
COc1cc2nccc(Oc3ccc(NC(=S)NC(=O)c4ccccc4C)cc3)c2cc1OC: 80.1%

Repeated from above (block 4):
OCC(O)CCON=C1C(c2c(O)[nH]c3ccccc23)=Nc2ccccc21 (stereo not drawn): 89.2%
Cn1sc(=O)n(Cc2ccccc2)c1=O: 95.2%
CNC(=O)c1cc(Oc2ccc(NC(=O)Nc3ccc(Cl)c(C(F)(F)F)c3)cc2)ccn1: 102%
NCCNc1ncc(C(N)=O)c(Nc2cccc(C(F)(F)F)c2)n1: 90.6%
O=C1NC(=O)C(c2cn(CCCn3ccnc3)c3ccccc23)=C1Nc1ccccc1: 95%
Nc1ncnc2n[nH]c(Nc3ccc(F)cc3)c12: 83.3%
C#Cc1cccc(Nc2ncnc3cc(OCCOC)c(OCCOC)cc23)c1: 104%
